Results pooled from the literature.
Each line is one published result; not all experiments were run side by side. ± marks the error that the study gave.
Fibroin-modulator-binding protein-1: Fibroin-modulator-binding protein-1 99-193 (Bombyx mori, UniProt Q5FBS0)
SPT15/TOA1/TOA2/SUA7 1-240; 1-286; 1-122; 1-345: SPT15/TOA1/TOA2/SUA7 1-240; 1-286; 1-122; 1-345 (Saccharomyces cerevisiae)
allR full length assumed: allR full length assumed (Escherichia coli, UniProt P0ACN4)
UniProt P0ACN4, sequence (whole entry, looked up): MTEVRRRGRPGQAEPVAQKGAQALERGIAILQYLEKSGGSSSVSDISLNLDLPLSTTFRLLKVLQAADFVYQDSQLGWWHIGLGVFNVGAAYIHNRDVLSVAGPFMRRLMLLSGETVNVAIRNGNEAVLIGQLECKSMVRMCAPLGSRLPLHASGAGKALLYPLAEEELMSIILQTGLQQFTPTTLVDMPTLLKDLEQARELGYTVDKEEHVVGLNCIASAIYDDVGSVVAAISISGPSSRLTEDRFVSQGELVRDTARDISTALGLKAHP
TFAM: TFAM 43-246 (Homo sapiens, UniProt Q00059)
UniProt Q00059, sequence (whole entry, looked up): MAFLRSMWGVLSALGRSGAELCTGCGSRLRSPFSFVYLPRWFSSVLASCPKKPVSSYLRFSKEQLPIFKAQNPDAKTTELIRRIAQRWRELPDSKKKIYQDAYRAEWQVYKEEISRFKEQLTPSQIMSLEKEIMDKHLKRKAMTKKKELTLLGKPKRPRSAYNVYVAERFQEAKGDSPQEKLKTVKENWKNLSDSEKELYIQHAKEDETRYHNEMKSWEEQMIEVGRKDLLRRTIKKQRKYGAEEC
CGAS K394E: CGAS 161-522 K394E (Homo sapiens, UniProt Q8N884)
UniProt Q8N884, sequence (whole entry, unmodified, looked up): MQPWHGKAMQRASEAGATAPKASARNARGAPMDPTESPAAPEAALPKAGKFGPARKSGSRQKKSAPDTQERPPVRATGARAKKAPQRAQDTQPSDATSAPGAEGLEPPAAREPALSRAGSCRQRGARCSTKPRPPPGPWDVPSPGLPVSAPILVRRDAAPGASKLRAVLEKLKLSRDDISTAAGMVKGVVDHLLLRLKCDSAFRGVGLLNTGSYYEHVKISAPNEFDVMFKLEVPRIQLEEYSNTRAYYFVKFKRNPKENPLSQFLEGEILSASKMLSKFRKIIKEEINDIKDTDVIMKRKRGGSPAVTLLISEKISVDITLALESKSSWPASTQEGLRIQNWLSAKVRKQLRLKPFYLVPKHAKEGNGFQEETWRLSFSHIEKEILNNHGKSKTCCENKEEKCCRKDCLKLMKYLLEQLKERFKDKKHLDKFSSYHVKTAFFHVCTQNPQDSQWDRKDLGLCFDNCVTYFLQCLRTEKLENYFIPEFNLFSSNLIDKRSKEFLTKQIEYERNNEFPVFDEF
T1: KU70/KU80 KU70 1-592; KU80 1-680 (Arabidopsis thaliana); chain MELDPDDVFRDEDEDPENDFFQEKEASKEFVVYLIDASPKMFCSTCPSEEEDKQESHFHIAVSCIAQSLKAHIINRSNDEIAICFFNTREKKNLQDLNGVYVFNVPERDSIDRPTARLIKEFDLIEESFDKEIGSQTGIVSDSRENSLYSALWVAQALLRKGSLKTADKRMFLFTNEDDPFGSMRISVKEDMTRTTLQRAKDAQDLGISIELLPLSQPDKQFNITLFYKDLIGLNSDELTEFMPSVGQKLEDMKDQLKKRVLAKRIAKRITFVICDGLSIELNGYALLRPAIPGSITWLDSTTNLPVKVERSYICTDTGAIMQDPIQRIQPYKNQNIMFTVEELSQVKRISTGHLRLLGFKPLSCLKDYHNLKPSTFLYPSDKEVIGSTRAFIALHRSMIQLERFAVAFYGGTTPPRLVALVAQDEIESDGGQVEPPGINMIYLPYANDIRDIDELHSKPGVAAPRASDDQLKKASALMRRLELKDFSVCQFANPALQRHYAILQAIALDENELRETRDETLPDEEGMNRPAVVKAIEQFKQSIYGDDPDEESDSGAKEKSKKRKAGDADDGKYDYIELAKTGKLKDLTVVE; chain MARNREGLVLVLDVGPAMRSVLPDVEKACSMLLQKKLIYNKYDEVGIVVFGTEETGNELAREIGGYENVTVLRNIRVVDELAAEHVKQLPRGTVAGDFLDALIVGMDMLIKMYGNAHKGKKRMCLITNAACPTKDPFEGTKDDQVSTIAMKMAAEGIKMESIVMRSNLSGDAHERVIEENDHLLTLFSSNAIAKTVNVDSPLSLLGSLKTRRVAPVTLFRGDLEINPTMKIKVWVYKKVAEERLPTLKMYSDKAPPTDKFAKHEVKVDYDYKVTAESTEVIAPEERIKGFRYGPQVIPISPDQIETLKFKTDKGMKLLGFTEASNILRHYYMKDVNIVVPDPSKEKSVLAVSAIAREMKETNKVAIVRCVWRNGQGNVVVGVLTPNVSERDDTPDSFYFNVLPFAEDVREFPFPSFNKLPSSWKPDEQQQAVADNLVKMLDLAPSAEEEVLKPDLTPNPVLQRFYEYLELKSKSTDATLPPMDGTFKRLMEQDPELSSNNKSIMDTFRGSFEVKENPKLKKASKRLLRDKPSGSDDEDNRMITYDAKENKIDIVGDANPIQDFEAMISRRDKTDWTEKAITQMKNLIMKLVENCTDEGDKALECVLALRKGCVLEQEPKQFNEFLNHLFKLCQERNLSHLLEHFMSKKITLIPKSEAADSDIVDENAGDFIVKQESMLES
UniProt P04150, sequence (whole entry, looked up): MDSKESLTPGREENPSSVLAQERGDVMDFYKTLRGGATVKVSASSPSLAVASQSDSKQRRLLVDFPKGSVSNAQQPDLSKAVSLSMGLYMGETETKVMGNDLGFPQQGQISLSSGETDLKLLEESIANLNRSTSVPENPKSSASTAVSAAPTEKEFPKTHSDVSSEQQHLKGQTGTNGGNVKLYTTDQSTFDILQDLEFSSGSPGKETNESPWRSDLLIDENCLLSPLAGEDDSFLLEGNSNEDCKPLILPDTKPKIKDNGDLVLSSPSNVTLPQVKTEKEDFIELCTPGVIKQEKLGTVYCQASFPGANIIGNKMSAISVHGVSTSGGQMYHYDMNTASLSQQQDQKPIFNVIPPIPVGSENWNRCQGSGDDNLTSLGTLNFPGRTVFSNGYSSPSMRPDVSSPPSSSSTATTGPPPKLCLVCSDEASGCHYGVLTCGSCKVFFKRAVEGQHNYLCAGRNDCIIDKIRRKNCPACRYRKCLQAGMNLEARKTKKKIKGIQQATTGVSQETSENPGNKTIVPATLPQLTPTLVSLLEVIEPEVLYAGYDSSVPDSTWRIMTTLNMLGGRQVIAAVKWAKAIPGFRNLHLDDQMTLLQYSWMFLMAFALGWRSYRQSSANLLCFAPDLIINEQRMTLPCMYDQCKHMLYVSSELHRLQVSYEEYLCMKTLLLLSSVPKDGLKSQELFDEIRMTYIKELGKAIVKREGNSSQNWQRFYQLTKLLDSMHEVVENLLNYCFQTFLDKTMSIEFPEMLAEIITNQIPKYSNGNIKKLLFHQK
UniProt Q01844, sequence (whole entry, looked up): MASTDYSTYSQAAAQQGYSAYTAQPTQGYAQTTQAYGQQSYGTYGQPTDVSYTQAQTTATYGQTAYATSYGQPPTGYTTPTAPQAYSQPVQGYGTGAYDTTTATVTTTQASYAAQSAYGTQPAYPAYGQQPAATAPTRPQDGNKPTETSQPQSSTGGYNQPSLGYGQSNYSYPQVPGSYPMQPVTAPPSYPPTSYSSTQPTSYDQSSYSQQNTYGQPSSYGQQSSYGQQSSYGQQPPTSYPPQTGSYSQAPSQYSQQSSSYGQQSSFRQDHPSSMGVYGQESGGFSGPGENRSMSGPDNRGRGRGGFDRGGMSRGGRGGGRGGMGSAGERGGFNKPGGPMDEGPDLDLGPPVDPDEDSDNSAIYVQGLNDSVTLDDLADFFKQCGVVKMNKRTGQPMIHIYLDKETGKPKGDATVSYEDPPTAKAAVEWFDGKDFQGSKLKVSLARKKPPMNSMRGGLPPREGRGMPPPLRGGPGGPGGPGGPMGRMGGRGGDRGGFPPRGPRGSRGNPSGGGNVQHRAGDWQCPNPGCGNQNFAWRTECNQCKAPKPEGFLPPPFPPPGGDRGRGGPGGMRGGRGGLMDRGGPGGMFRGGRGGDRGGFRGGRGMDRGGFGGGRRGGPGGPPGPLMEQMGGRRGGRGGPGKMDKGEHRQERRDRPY
UniProt P0A7G6, sequence (whole entry, unmodified, looked up): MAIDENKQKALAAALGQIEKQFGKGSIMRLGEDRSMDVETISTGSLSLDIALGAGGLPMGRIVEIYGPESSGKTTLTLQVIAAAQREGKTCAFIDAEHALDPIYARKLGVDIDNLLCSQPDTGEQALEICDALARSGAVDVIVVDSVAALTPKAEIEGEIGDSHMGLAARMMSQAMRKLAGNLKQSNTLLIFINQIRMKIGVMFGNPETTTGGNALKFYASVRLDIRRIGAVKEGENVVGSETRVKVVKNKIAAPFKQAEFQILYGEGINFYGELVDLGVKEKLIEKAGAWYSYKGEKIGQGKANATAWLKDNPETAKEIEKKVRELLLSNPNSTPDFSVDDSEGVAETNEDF
UniProt Q9NUX5, sequence (whole entry, looked up): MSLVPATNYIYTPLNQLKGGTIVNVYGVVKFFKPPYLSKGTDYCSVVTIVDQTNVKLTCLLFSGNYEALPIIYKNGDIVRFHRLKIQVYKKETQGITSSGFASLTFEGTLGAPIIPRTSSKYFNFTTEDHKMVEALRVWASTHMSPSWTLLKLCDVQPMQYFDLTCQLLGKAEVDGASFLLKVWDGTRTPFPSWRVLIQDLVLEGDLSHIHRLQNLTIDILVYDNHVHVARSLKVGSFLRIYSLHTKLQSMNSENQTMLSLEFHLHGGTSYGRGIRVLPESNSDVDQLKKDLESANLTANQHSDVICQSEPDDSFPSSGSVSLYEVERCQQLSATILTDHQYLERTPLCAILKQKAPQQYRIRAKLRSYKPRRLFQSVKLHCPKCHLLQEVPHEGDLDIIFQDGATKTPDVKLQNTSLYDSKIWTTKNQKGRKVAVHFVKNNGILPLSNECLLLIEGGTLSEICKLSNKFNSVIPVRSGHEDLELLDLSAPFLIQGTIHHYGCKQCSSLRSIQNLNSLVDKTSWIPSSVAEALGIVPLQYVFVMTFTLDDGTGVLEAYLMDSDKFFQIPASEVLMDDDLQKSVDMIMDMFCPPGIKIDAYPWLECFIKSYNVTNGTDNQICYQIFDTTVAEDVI
UniProt P32787, sequence (whole entry, looked up): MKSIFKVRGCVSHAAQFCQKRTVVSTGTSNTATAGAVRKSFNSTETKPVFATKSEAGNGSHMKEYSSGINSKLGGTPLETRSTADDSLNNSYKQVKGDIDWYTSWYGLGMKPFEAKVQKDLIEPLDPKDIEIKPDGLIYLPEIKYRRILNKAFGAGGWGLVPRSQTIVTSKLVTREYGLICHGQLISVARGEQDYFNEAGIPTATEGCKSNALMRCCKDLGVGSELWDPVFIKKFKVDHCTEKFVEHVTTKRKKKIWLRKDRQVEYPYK
UniProt P19880, sequence (whole entry, looked up): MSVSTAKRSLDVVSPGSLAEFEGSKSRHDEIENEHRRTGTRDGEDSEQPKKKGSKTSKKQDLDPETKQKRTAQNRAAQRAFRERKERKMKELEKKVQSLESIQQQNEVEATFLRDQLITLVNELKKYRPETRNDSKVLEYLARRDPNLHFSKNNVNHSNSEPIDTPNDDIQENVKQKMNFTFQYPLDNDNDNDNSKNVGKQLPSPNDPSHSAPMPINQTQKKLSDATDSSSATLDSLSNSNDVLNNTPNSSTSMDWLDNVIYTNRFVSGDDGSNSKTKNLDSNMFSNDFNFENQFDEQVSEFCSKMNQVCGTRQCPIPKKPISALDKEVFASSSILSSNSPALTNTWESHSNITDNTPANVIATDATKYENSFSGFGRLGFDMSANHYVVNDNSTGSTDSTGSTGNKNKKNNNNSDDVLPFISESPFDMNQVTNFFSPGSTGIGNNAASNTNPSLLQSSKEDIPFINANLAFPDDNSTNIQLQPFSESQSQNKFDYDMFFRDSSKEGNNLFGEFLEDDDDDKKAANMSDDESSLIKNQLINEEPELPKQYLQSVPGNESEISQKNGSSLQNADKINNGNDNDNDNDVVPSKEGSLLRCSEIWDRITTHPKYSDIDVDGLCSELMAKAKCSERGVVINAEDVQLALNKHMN

For `AGAACAGAGTGTTCT (dsDNA)`, the Kd was 0.21 µM (NR3C1 1-525 (Homo sapiens, UniProt P04150); fluorescence anisotropy; double-stranded DNA, one strand shown).
`AACTAACTAACT (dsDNA)` gave a Kd of 1.25 ± 0.0967 µM (Fibroin-modulator-binding protein-1; ITC; double-stranded DNA, one strand shown).
The Kd of `GTATAAAAGTTCCTGAAGGGGGGGCGGGGTGGGGGTCAAGTCAATCGGTCC (dsDNA; 5'-amino-C6 primer)` is reported as 0.00206 ± 0.00028 µM (SPT15/TOA1/TOA2/SUA7 1-240; 1-286; 1-122; 1-345; array; double-stranded DNA, one strand shown; TBP:TFIIA:TFIIB ternary complex).
The Kd of `RNA 1 UAAGACACGAUGCGAUAAAAUCUGUUUGUAAAAUUUAUUAAGGGUACAAAUUGCCCUAGC / RNA 2 GCUAGGGCAAUUUGUACCCUUAAUAAAUUUUACAAACAGAUUUUAUCGCAUCGUGUCUUA (dsRNA)` is reported as 0.78 ± 0.44 µM (CGAS 161-522 (Homo sapiens, UniProt Q8N884); fluorescence anisotropy; double-stranded RNA).
The Kd of `TTGACAAAATTTGAAAGTTGGAAATATATTCCAATAAATAGAGGTAGGAATAAAATGGCAA (dsDNA)` is reported as 0.0419 µM (allR full length assumed; BLI; double-stranded DNA, one strand shown).
The Kd of `TAACAGTCACCCCCCAACTAAC (dsDNA)` is reported as 0.0019 ± 0.0007 µM (TFAM; fluorescence polarization; double-stranded DNA, one strand shown).
With `TCCTGAAGGGGCGCCTATAAAAGGTCCTATCGTCGTCAAGTCAATCGGTCC (dsDNA; 5'-amino-C6 primer)` the Kd was 0.0317 ± 0.0797 µM (SPT15/TOA1/TOA2/SUA7 1-240; 1-286; 1-122; 1-345; array; double-stranded DNA, one strand shown; TBP:TFIIA:TFIIB ternary complex).
`TTGATAAGAGGTCATTTTTGCGGATGGCTTAGAGCTTAATTGCTGAATCTGGTGCTGTAGCTCAACATGTTTTAAATATGCAA (ssDNA)` has a Kd of 0.36 ± 0.085 µM (MGM101 23-269 (Saccharomyces cerevisiae, UniProt P32787); fluorescence polarization; single-stranded DNA).
`AAAGAAAGAAAGAAAGAAAGAAAGAAAGAAAGAAAGAAAGAAAGAAAGAAAGAAAGAAAG (ssDNA)` has a Kd of 1.77 ± 0.15 µM (CGAS K394E; fluorescence anisotropy; single-stranded DNA).
`AGTTGGCAAGATGCCAATC (dsDNA)` has a Kd of 0.00161 ± 4e-05 µM (NFIB 14-176 (Homo sapiens, UniProt O00712); BLI; double-stranded DNA, one strand shown; together with: Zn2+ 1 mM).
`CGCTATTTACGTCACTACGTCAGCACGTCAGGACGTCAGTACGTCATCACGTCATCTCCGGCGGTATGAC (dsDNA)` has a Kd of 2.3 ± 0.2 µM (YAP1 full length assumed (Saccharomyces cerevisiae, UniProt P19880); MITOMI; double-stranded DNA, one strand shown; not purified).
With `AGATCTCCATCCTTGGGATATGGCTACCAGAAAGTAAAGGGACGATACAAGTCAAGTGAGA (dsDNA)` the Kd was 1.4 µM (allR full length assumed; BLI; double-stranded DNA, one strand shown).
With `CTGGGAGGGGCGCCGGGGGCGGGGCCTCGGGCT (G-quadruplex DNA (Homo sapiens); hybrid G4)` the Kd was 0.0998 µM (DHX36 full length assumed (Homo sapiens, UniProt Q9H2U1); BLI; folded DNA).
`AGCCAGCCAGCC (dsDNA)` gave a Kd of 4.03 ± 0.797 µM (Fibroin-modulator-binding protein-1; ITC; double-stranded DNA, one strand shown).
`CACCATCCACTAC / ATGTAGTTGTAGTGGATGGTGGTAC (dsDNA; primer-template)` has a Kd of 0.012 ± 0.001 µM (POLH 1-432 (Homo sapiens, UniProt Q9Y253); fluorescence polarization; together with: MgCl2 5 mM).
`AGCGTCACAGACATGAAATTGGTAAGACCAATTGACTTCGGCAAGTGGCTTAAGACAGGAA (dsDNA)` gave a Kd of 1.57 µM (allR full length assumed; BLI; double-stranded DNA, one strand shown).
The Kd of `UAGAAGCGGAUUUAGCUCAGUUGGGAGAGCGCCAGACUGAAGAUCUGGAGGUCCUGUGUUCGAUCCACAGAAUUCGCA (tRNA (Saccharomyces cerevisiae))` is reported as 0.19 ± 0.06 µM (RNA-free ribonuclease P 1-192 C114S (Aquifex aeolicus, UniProt O67035); fluorescence polarization; folded RNA; together with: CaCl2 20 mM).
`TTCTACGAGATCGTCATGAC (ssDNA; m6A in GATC)` gave a Kd of 0.11 µM (recA full length assumed E39K (Escherichia coli, UniProt P0A7G6); BLI; single-stranded DNA; together with: ATPgS).
`DNA 1 GGATCTCGACGCTCTCCCTT / DNA 2 GTCGAGATCC (dsDNA; 3' 10-nt overhang, blunt end)` gave a Kd of 0.092 ± 0.016 µM (RECQL 49-616 D230A/R232A (Homo sapiens, UniProt P46063); fluorescence anisotropy; double-stranded DNA; Mg2+ 5 mM, together with: ADPNP 2 mM).
`CTCAGGAATTCCTAGAAAGTAATGTGGAGCTCAGTTCAAGTCAATCGGTCC (dsDNA; 5'-amino-C6 primer)` gave a Kd of 0.00478 ± 0.00062 µM (SPT15/TOA1/TOA2/SUA7 1-240; 1-286; 1-122; 1-345; array; double-stranded DNA, one strand shown; TBP:TFIIA:TFIIB ternary complex).
`TTGCATCCTTCACAACGACCACCTAGATAG (dsDNA; blunt)` has a Kd of 0.105 µM (T1, KU70/KU80 KU70 1-592; KU80 1-680 (Arabidopsis thaliana); PIFE stopped-flow; double-stranded DNA, one strand shown).
The Kd of `CTCGCTCCATCTCCAGAACTACAAGTCCCAGAGTGTCAAGTCAATCGGTCC (dsDNA; 5'-amino-C6 primer)` is reported as 0.00159 ± 0.00024 µM (SPT15/TOA1/TOA2/SUA7 1-240; 1-286; 1-122; 1-345; array; double-stranded DNA, one strand shown; TBP:TFIIA:TFIIB ternary complex).
The Kd of `TTAACGTCACTTGTGGGAACAGAATGTATTATTCCGTGAAGAAGG (dsDNA (Homo sapiens); blunt duplex)` is reported as 0.357 ± 0.055 µM (NR3C1 418-506 (Homo sapiens, UniProt P04150); EMSA; double-stranded DNA, one strand shown).
`CTGAAGGGGGGGCTATAAAAGTTTATGGGGGCTCCTCAAGTCAATCGGTCC (dsDNA; 5'-amino-C6 primer)` has a Kd of 0.0103 ± 0.00716 µM (SPT15/TOA1/TOA2/SUA7 1-240; 1-286; 1-122; 1-345; array; double-stranded DNA, one strand shown; TBP:TFIIA:TFIIB ternary complex).
`DNA 1 CACTGGCCGTCTTACGGTCGCTCTGCTCGACG / DNA 2 CGACCGTAAGACGGCCAGTG (dsDNA; 20 bp, 3' 12 nt overhang)` gave a Kd of 0.0583 ± 0.0193 µM (RECQL 63-592 R203A (Homo sapiens, UniProt P46063); fluorescence anisotropy; double-stranded DNA; together with: Mg2+ 3 mM).
`GGACGGACGGAC (dsDNA)` has a Kd of 11.5 µM (Fibroin-modulator-binding protein-1; ITC; double-stranded DNA, one strand shown).
The Kd of `TAAGACACGATGCGATAAAATCTGTTTGTAAAATTTATTAAGGGTACAAATTGCCCTAGC (dsDNA)` is reported as 0.0228 ± 0.0031 µM (CGAS 1-522 (Homo sapiens, UniProt Q8N884); fluorescence anisotropy; double-stranded DNA, one strand shown).
`ATTTATATTATTTATTCATATTTATATTTA (ssDNA)` has a Kd of 0.917 ± 0.217 µM (APOBEC3F full length assumed T312P (Homo sapiens, UniProt Q8IUX4); EMSA; single-stranded DNA).
With `GGCGGGCGGGCG (dsDNA)` the Kd was 4.64 ± 0.794 µM (Fibroin-modulator-binding protein-1; ITC; double-stranded DNA, one strand shown).
With `TCCTGAAGGGGCGCACTAGCTTGGTCCTATCGTCGTCAAGTCAATCGGTCC (dsDNA; 5'-amino-C6 primer)` the Kd was 0.00277 ± 0.00041 µM (SPT15/TOA1/TOA2/SUA7 1-240; 1-286; 1-122; 1-345; array; double-stranded DNA, one strand shown; TBP:TFIIA:TFIIB ternary complex).
The Kd of `CGGUGUUGCU (ssRNA)` is reported as 0.07 ± 0.01 µM (TARDBP 102-269 (Homo sapiens, UniProt Q13148); BLI; RNA).
`CGCACGCACGCA (dsDNA)` has a Kd of 4.43 ± 0.542 µM (Fibroin-modulator-binding protein-1; ITC; double-stranded DNA, one strand shown).
With `DNA 1 GCTCAGTTCCCTGCTGGAAACGCCGCGGTCGTAGTAATATAGATAGGTCTGGATCAGATGTTGTTTCGGGGATTGTCAACAGCTGAGC / DNA 2 GCTCAGCTGTTGACAATCCCCGAAACAACAGAGACGAACTCTTCGCAGCAGCCGAGCTGACCGCGGCGTTTCCAGCAGGGAACTGAGC (DNA; 28 nt internal bubble)` the Kd was 0.046 ± 0.015 µM (EWSR1 1-656 (Homo sapiens, UniProt Q01844); EMSA; folded DNA).
For `TAACAGTCACCCCCCNACTAAC / GTTAGTTGGGGGGTGACTGTTA (dsDNA; blunt, abasic site with mTAP oxime)`, the Kd was 0.00067 ± 0.00012 µM (TFAM; fluorescence polarization; apparent).
The Kd of `AAGGAAGGAAGG (dsDNA)` is reported as 4.39 ± 0.66 µM (Fibroin-modulator-binding protein-1; ITC; double-stranded DNA, one strand shown).
The Kd of `RNA 1 UAAGACACGAUGCGAUAAAAUCUG / RNA 2 CAGAUUUUAUCGCAUCGUGUCUUA (dsRNA)` is reported as 0.798 ± 0.064 µM (CGAS K394E; fluorescence anisotropy; double-stranded RNA).
For `GGTTAGGGTTAG (ssDNA; 5'-phosphate)`, the Kd was 0.00019 µM (POT1 1-299 (Homo sapiens, UniProt Q9NUX5); EMSA; single-stranded DNA).

For quick reference, copied from above:
`CGCTATTTACGTCACTACGTCAGCACGTCAGGACGTCAGTACGTCATCACGTCATCTCCGGCGGTATGAC (dsDNA)` has a Kd of 2.3 ± 0.2 µM (YAP1 full length assumed (Saccharomyces cerevisiae, UniProt P19880); MITOMI; double-stranded DNA, one strand shown; not purified).
With `CTGGGAGGGGCGCCGGGGGCGGGGCCTCGGGCT (G-quadruplex DNA (Homo sapiens); hybrid G4)` the Kd was 0.0998 µM (DHX36 full length assumed (Homo sapiens, UniProt Q9H2U1); BLI; folded DNA).
`AACTAACTAACT (dsDNA)` gave a Kd of 1.25 ± 0.0967 µM (Fibroin-modulator-binding protein-1; ITC; double-stranded DNA, one strand shown).
